Measured values gathered from unrelated publications.
Every numbered part comes from another study and shows a few of its results, in no order. Substitutions count along the parent as printed.

Series 1
Target: CCNA2, cyclin fold, Cln2 fusion (human)
Method: yeast growth competition, sequencing
Matrix: yeast
Setting: strong parent motif
Relative to: not given
Direction: higher = stronger binding
Parent: CDKN1C docking peptide (human); TSACRSLFGPVDH; partner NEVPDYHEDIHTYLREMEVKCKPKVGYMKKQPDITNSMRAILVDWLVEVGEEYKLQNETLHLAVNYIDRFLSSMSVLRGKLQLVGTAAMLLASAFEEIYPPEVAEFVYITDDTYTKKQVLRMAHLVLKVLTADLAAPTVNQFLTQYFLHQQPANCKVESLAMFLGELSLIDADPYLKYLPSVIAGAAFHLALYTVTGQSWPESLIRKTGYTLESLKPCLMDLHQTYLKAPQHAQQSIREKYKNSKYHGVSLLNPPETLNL
Substitution | normalised enrichment score
S2A | 2.42
R5K F8L | 0.257
T1A | 2.89
D12A | 2.84
F8A | -0.217
S6A | 2.7
L7A | -0.267

Series 2
Target: Sal-like protein 4, full length isoform A (SALL4, Homo sapiens, UniProt Q9UJQ4, residues 1-1053)
Chain of UniProt Q9UJQ4 (whole entry, looked up): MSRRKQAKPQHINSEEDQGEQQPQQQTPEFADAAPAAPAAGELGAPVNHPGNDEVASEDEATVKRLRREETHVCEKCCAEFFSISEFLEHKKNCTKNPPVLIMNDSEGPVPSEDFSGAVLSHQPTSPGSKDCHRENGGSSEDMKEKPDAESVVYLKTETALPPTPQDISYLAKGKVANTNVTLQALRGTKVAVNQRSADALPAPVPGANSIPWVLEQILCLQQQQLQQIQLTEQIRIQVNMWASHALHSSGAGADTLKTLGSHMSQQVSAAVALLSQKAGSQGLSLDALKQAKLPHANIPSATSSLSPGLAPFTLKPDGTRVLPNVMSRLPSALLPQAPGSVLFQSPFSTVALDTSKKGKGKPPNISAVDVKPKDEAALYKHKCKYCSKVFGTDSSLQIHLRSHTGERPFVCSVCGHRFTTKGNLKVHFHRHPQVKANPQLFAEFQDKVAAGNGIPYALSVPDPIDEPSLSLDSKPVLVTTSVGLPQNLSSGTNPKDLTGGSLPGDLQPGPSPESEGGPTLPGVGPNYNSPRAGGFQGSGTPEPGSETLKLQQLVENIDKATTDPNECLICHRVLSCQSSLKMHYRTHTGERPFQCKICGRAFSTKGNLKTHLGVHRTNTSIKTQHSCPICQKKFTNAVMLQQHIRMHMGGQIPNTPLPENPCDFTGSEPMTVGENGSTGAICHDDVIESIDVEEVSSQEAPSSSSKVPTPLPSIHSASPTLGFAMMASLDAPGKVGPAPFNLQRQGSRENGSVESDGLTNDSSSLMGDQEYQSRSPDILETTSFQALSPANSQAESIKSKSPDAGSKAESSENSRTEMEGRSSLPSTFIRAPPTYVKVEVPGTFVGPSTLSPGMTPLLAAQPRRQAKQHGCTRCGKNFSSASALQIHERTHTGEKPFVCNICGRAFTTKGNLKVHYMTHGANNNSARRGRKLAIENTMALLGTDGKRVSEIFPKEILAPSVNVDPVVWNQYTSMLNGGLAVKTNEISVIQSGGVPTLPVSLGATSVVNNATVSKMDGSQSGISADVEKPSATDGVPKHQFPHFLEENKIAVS
Method: universal PBM
Molecule type: double-stranded DNA, one strand shown
Matrix: in vitro
Tested at: 600 nM
Setting: 8-mer, flanks averaged, mean of replicates
Direction: higher = stronger binding
Strand | E-score
CCCTCGGC | -0.318
CCCACGCA | -0.0931
GGCCTCAA | -0.125
GGCTGATA | -0.0115
AACCAGCT | 0.00468
CGGGTGTC | -0.272
AAACGGTA | 0.0854
AAAATCAG | 0.0736
ATTGAATC | 0.196
ATTGGTGA | 0.191
GAAATTGC | 0.0886
AATAGTCC | 0.0197
CCATAGCC | -0.178
AGTGACAA | 0.13
AGTTCTTC | -0.0396
GAACTGTA | 0.218
TCCTAGCA | -0.0353
ATAACACG | 0.144
AGTCCCAA | -0.0947
ACAGTTGG | 0.00554
AGTGCTGG | -0.0991
ACCATCGA | 0.0397

Series 3
Target: NFE2L2, bZIP domain (human)
Method: DHFR protein complementation
Matrix: yeast
Setting: single substitutions, most at no-binding floor
Relative to: wild-type JUN-FOS pair
Direction: higher = stronger binding
Parent: JUN, bZIP domain (human); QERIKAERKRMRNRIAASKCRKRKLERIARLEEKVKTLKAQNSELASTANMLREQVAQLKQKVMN; partner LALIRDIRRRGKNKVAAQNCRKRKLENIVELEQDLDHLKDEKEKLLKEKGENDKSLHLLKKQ
Substitution | binding fitness [natural log]
E54W | -1.43
V35R | -1.48
T48V | -1.47
K39N | -1.46
S43P | -1.51
K36H | -1.45
E44Y | -1.43
I28F | -1.5
A57K | -1.34
T48C | -1.29
E33Q | -1.6
L38S | -1.53
K34M | -1.14
T48K | -1.11
I28T | -1.44

Series 4
Target: RING finger protein unkempt homolog, zinc fingers 1-6, SBP tag (UNK, Homo sapiens, UniProt Q9C0B0, residues 30-357)
Chain of UniProt Q9C0B0 (30-357, looked up): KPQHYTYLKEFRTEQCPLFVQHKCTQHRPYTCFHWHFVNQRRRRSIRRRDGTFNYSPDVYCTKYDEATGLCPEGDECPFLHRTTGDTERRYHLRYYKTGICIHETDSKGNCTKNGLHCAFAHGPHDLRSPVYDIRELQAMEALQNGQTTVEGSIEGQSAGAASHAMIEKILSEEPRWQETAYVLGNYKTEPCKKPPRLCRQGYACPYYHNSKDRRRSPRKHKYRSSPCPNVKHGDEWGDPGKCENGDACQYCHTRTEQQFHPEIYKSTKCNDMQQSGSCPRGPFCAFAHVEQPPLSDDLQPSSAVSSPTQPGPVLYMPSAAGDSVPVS
Method: RNA Bind-n-Seq
Molecule type: RNA
Matrix: in vitro
Tested at: 100 nM
Setting: RNA with constant flanks, vertebrate orthologous sites, ends assumed
Relative to: input RNA pool
Direction: higher = stronger binding
Strand | bound/input enrichment [ratio]
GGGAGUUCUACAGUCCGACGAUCGUGACCUGGUACAAUGUACAUUUAUGUACCAUGUUCAUCCAUGUACAUUAAACUCCUAGCCAUAGAAGUAGAAUCUGGUAUUUUUGAAAGGUUUUCAUUGCUGUGUAUUCUCACUCAUGGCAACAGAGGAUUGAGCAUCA | 0.449
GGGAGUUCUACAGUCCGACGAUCUUUUAUUGAUCAGGUCUGUAAAUGUGUACUAAAAAAAUCAGAGUUUAUUUAUAAACAGAAUAGUUUAUUUAAAAAGAAGGUCUUACUUCAUCGAUAUUGUGGUAUGCAUUAAUUCCAUUUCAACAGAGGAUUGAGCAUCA | 0.207
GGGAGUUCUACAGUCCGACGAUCUUCAGGCACAACUGACUGGUUCACAGCAUUCCUUACACAGUUAUUUAUCAAGUACAAGUGGAGUUAAUUUUCAGGAUACAUCCAGGCAGUCAGCACUGUCCUGCAGUCCAGUUGGAGAUGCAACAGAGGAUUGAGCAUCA | 0.357
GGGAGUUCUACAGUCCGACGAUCAAAAUCCUGGCUGCUUGUAUCACCUCAGUGAGGUAAAGUCUCCAGGCAUUCAGCCAGGACCAGCCUCACCACCCUCAGACUCUGCACAUGUAAUUUUCUUUCUUUUGUACAUGCUCAUCUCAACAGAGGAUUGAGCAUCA | 0.484
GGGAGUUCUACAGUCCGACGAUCCUCUAUGGGCCUCGCAGAGUUGAAAUAAUGGAAGAGGAAAGUGAAUAGUAAUCUUCAUUUUAGUAUUUAUGCUUAGAUGUGAAAAUAAAUGUUAUUUGUUGAUCAUUUCUAUAAUCCAGACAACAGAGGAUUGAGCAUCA | 0.533
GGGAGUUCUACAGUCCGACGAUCGAAUAUAGUCACUCAAUUAAAAUUAUUUAGAUAAAAUUAUUGUUUAUGUUUUCUUUCAAGCAAUCUAUCCUAUUUUUAUCCAUUUGCAAAUGCCAGUUUUGUGUGGUUUCUUAGCAUAUCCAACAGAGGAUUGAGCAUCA | 1.08
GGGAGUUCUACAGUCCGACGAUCAAUUGACAAUGAAAAGAGCCAAGCAGUAGCAUUUUGUUUUUUUAUAAAUGUAAAAAUUAGAUUCACUGUUUCCUAUUCAGUUUUAAAAAUAAAAAUACCUCAGUGCUGUGUUUCCCAGUACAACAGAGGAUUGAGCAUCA | 0.673
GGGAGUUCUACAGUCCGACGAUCCAUGUGCUGGUGCAGAGCCGUCUGUGCCACUGCGCAUCGUCCCUUGGUACCAACUGUCUCUAGUUGUAGGAAUUUAAUAUUUUUAAAAGUUUUACAUUGCUGUAUAUUCAAAGAUUUGUUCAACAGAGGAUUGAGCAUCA | 0.285

Series 5
Target: ABI1, truncated, D143A, DHFR fusion (Arabidopsis thaliana)
Method: DHFR PCA, deep sequencing
Matrix: yeast
Setting: methotrexate growth selection, single substitutions
Added: (+)-ABA 1.4 µM
Relative to: wild-type fitted maximum
Direction: higher = stronger binding
Parent: PYL1, truncated, DHFR fusion (Arabidopsis thaliana); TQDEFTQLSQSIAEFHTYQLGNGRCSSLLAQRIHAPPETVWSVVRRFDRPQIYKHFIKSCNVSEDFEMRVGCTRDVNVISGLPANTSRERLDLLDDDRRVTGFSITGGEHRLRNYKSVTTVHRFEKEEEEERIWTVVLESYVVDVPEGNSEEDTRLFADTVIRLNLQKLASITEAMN; partner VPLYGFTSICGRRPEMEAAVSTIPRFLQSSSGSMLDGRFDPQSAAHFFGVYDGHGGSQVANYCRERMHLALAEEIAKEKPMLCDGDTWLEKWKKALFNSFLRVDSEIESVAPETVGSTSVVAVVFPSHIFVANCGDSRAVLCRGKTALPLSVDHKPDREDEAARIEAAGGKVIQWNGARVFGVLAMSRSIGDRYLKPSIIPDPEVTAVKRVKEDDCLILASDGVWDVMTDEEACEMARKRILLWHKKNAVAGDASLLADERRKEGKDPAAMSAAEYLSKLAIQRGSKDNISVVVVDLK
Substitution | relative binding score [%]
R46Y | -34.2
T135I | -6.21
R99A | 9.51
D75N | 58.2
D144R | -12.2
S150L | -2.43
E38L | 15.2
L28G | 11.7
V143S | -8.11
F5M | 68.9
Q51W | 1.72
A13K | 53.1
D97Q | 65.1
E151Y | 16.9
T160M | 27.5
